Results of several laboratories.
Protocols differ between the studies behind these lines. Numbers after ± are the reported error.
Cell line: HEK293

CC(C)Cc1ccc(C(C)C(=O)N/N=C/c2ccc(OCC(=O)N/N=C/c3c(O)ccc4ccccc34)cc2)cc1 (centres unmarked) — viability (MTT; 10 µM, 48 h): 42.1%
C[C@@H](Nc1c(-c2c(F)cc(C#CCCO)cc2F)c(Cl)nc2ncnn12)C(C)(C)C — CC50 (cell growth or viability, ATP luminescence; 48 h): 35.9 nM
O=C(NCCCCCCCCCC[P+](c1ccccc1)(c1ccccc1)c1ccccc1)c1ccc(O)c(O)c1 — CC50 (cell growth or viability, resazurin; 20 h): 9.07 µg/mL
NCC1OC(OC2C(N)CC(N)C(OC3OC(CO)C(O)C(N)C3O)C2OCCCCCCCCCCCCn2cc(CNc3nc(NCc4cn(CCCCCCCCCCCCOC5C(OC6OC(CN)C(O)CC6N)C(N)CC(N)C5OC5OC(CO)C(O)C(N)C5O)nn4)nc(NCc4cn(CCCCCCCCCCCCOC5C(OC6OC(CN)C(O)CC6N)C(N)CC(N)C5OC5OC(CO)C(O)C(N)C5O)nn4)n3)nn2)C(N)CC1O (centres unmarked) — viability (cell growth or viability, resazurin; 27 µM, 48 h): 16%
CC(C)Cc1ccc(C(C)C(=O)N/N=C/c2ccc(OCC(=O)N/N=C/c3ccc([N+](=O)[O-])cc3)cc2)cc1 (centres unmarked) — viability (MTT; 100 µM, 48 h): 45.2%
Cc1[nH][n+]([Pd-2]([Cl])([Cl])[n+]2[nH]c(C)c(CSCc3ccccc3)c2C)c(C)c1CSCc1ccccc1 — IC50 (cytotoxicity, 7-AAD flow cytometry; 24 h): 920 ± 90 nM
CC(C)Cc1ccc(C(C)C(=O)NN=Cc2ccc(OCC(=O)NN=Cc3cccc([N+](=O)[O-])c3)cc2)cc1 (centres unmarked) — viability (MTT; 10 µM, 48 h): 112%
C/C(=N\NC(=N)N)c1nnn(-c2ccc(S(=O)(=O)NCC(C)C)cc2)c1C — IC50 (cytotoxicity, MTT): 18900 nM
C[C@H](Nc1c(-c2c(F)cc(OCCCN(C)C)cc2F)c(Cl)nc2ncnn12)C(C)(C)C — CC50 (cell growth or viability, ATP luminescence; 48 h): 36.9 nM
O=C(Cc1ccc(OCc2ccccc2)cc1)NC1(C(=O)O)CCN(C(=O)c2ccc(-c3cccc(Cl)c3)cc2)CC1 — IC50 (cytotoxicity; 3 days): > 100000 nM
C[C@@H](Nc1c(-c2c(F)cc(OCCCN(C)C)cc2F)c(Cl)nc2ncnn12)C1CC1 — CC50 (cell growth or viability, ATP luminescence; 48 h): 37.1 nM
NC[C@H]1O[C@H](O[C@H]2[C@H](OCCCCCCCCCCCCn3cc(CNc4nc(NCc5cn(CCCCCCCCCCCCO[C@@H]6[C@@H](O)[C@H](N)C[C@H](N)[C@H]6O[C@H]6O[C@H](CN)[C@@H](O)C[C@H]6N)nn5)nc(NCc5cn(CCCCCCCCCCCCO[C@@H]6[C@@H](O)[C@H](N)C[C@H](N)[C@H]6O[C@H]6O[C@H](CN)[C@@H](O)C[C@H]6N)nn5)n4)nn3)[C@@H](O)[C@H](N)C[C@@H]2N)[C@H](N)C[C@@H]1O — viability (cell growth or viability, resazurin; 27 µM, 48 h): 1.77%
CN(C)CCCOc1cc(F)c(-c2c(Cl)nc3ncnn3c2NCC2(C)N=N2)c(F)c1 — CC50 (cell growth or viability, ATP luminescence; 48 h): 19.1 nM
COc1cccc(/C=N/NC(=O)COc2ccc(/C=N/NC(=O)C(C)c3ccc(CC(C)C)cc3)cc2)c1O (centres unmarked) — viability (MTT; 40 µM, 48 h): 56%

A few entries again:
O=C(Cc1ccc(OCc2ccccc2)cc1)NC1(C(=O)O)CCN(C(=O)c2ccc(-c3cccc(Cl)c3)cc2)CC1 — IC50 (cytotoxicity; 3 days): > 100000 nM
C[C@@H](Nc1c(-c2c(F)cc(OCCCN(C)C)cc2F)c(Cl)nc2ncnn12)C1CC1 — CC50 (cell growth or viability, ATP luminescence; 48 h): 37.1 nM
